Measured values of several laboratories.
Lines come from different studies, so protocols differ. Numbers after ± are the reported error.

Compound	assay	system	conditions	how to read	measurement	result
C=CCNc1c(O)cc2c(O)c1C[C@@H](C)C[C@H](OC)[C@H](O)[C@@H](C)/C=C(\C)[C@H](OC(N)=O)[C@@H](OC)/C=C\C=C(/C)C(=O)N2	–	unresectable or metastatic STS, GIST, other	intravenous, 300 mg/m^2	–	patients with myalgia TEAE	33%
COc1cc2c(cc1OC)CN(CCc1ccc(NC(=O)c3cccc4c(=O)c5cccc(OC)c5[nH]c34)cc1)CC2	–	CD-1 mouse, male, plasma	intraperitoneal, 0.3 mg/kg	–	half-life	7.28 h
C[C@]1(O)C[C@@](N)(c2ccc(-c3nc4n(c3-c3ccccc3)COc3ccncc3-4)cc2)C1	–	human, advanced or metastatic solid tumours	20 mg once daily, phase I dose escalation	–	patients with Fatigue TEAE	33.3%
NCCCC[C@@H]1NC(=O)[C@@H](Cc2c[nH]c3ccccc23)NC(=O)[C@H](c2ccccc2)NC(=O)[C@@H]2C[C@@H](OC(=O)NCCN)CN2C(=O)[C@H](Cc2ccccc2)NC(=O)[C@H](Cc2ccc(OCc3ccccc3)cc2)NC1=O	–	healthy human volunteers	600 µg twice daily	–	subjects with adverse event Flatulence	7%
COc1cc2c(Oc3ccc4[nH]c(C)cc4c3F)ccnc2cc1OCC1(N)CC1	–	paediatric recurrent refractory sarcoma	8 mg	–	Anorexia incidence	0%
Cc1cc(C)c(CNC(=O)c2cc(Cl)c3c(c2C)O[C@@](C)([C@H]2CC[C@H](N(C)C)CC2)O3)c(=O)[nH]1	–	human, relapsed/refractory NHL	concentration not given, treatment-related TEAEs, grade 5	–	Hypotension incidence	0%
O=S(=O)(Nc1ccccc1)c1ccc(NC(=S)Nc2ccccc2)cc1	–	mouse, male, kidney	oral, 80 mg/kg daily, 14 days	reference: body weight	relative organ weight	1.61%
COc1ccc(-c2c(-c3ccc(C#N)c(F)c3)nc(N3CCC(N)CC3)n(C)c2=O)cc1F	item: conjunctival hemorrhage	neuroendocrine neoplasm patients	oral, 60 mg, dose expansion	–	grade 3-4 TRAE incidence	0%
CCc1ccc(CC/C=C/c2ccc3c(c2)C(=O)CC3)cc1	–	Sprague-Dawley rat, female	oral, 450 mg/kg/day, 14 days	–	Neutrophil percentage	23.4%
[Se]	–	rat, plasma	single dose, sodium selenate	–	Tmax	~1 h
O=C(Nc1ccccc1)C1CCN(C(=O)Oc2cccnc2)CC1	adverse event reporting	healthy women	oral, 60 mg, 7 days	–	subjects with decreased appetite	7.1%
CC1(C)C(=O)N(c2ccc(C#N)c(C(F)(F)F)c2)C(=S)N1c1ccc(C(N)=O)c(F)c1	population PK final model	human	–	–	intercompartmental clearance	9.44 L/h
O=C(c1ccc(F)c(F)c1Nc1ccc(I)cc1F)N1CC(O)([C@@H]2CCCCN2)C1	–	human patients	oral, dose not given, dose escalation, suspension	–	treatment-related AE causing withdrawal	15%
CN1CCN(S(=O)(=O)c2cc([N+](=O)[O-])ccc2N(CCOS(C)(=O)=O)CCOS(C)(=O)=O)CC1	–	naive NOD/SCID mice, pooled blood	intraperitoneal, 18.8 mg/kg, week 4	–	phosphate	2.1 mmol/L
Cc1cccc(Cn2nc(C3CC3)c3c(NC(=O)c4cnc5cc(OCCN6CCN(C)CC6)ccn45)cccc32)n1	CTCAE v4.03, item: nausea	platinum-resistant ovarian cancer patients	oral, dose not given, together with: pembrolizumab IV every 3 weeks	–	all-cause adverse events	45.5%
C/C(=N\C#N)N(C)Cc1ccc(Cl)nc1	–	soil	28 days, nominal 0.37	–	concentration	0.026 mg/kg dry soil
CC(=O)c1c(C)c2cnc(Nc3ccc(C4CCN(CCS(C)(=O)=O)CC4)cn3)nc2n(C2CCCC2)c1=O	–	human, plasma	oral, 50 mg twice daily, day 21, multiple doses, together with: letrozole	–	AUC(0-inf)	593 ng·h/mL
COc1ncccc1-c1cnn2ccc(N3CCN(C(=O)OC(C)C)CC3)nc12	–	mouse, formalin test, brain	oral, 60 mg/kg, 60 min	–	drug concentration	115 µM
CC(=O)c1c([O-])cc(C)oc1=O.[Na+]	–	Wistar rat, male, serum	oral, 200 mg/kg, no CYP inhibitor	–	mean residence time	7.29 ± 0.23 h

Compound	assay	system	conditions	how to read	measurement	result
[Cl][212Pb][Cl]	–	athymic mice, C4-2 xenograft, blood	intravenous, 2 h, 212Pb-labelled	–	tissue uptake	4.47 ± 0.89 %ID/g
CO[C@H]1C[C@@H]2CC[C@@H](C)[C@@](O)(O2)C(=O)C(=O)N2CCCC[C@H]2C(=O)O[C@H]([C@H](C)C[C@@H]2CC[C@@H](OC(=O)NCCOCCOCCOCCOCCOCCOCCOCCOCCC(=O)N3CCc4cc(Cn5nc(-c6ccc7oc(N)nc7c6)c6c(N)ncnc65)ccc4C3)[C@H](OC)C2)C[C@@H](O)[C@H](C)/C=C(\C)[C@@H](O)[C@@H](OC)C(=O)[C@H](C)C[C@H](C)/C=C/C=C/C=C/1C	dose-escalation trial	patients with advanced solid tumours	intravenous, all doses weekly, any grade	–	decreased appetite leading to dose reduction	1.8%
C[C@]1(CO)Cc2ncn(-c3ccc(C#N)c(Cl)c3)c2C(=O)O1	–	human	10 mg single dose	–	subjects with drug-related headache	0%
C[C@@H]1OC(=O)NN=C1c1ccc(-c2ccc(F)cc2)c(C(F)(F)F)c1	phase I trial, item: Nausea worst grade 1	human patients	dose not given, all dose groups	–	patients with adverse event	40%
COc1ccc2c(c1)CN(C(=O)CCN1CCC(Cc3ccccc3)CC1)CC[S@@+]2[O-]	–	female beagle dogs, chronic AV block	intravenous, 3 mg/kg, before dosing	–	QTcF	289 ± 11 ms
CC(C)(C)c1cc(-n2nc3ccccc3n2)c(O)c(C(C)(C)C)c1	exposure assessment	human, age 3-6 years	concentration not given, spray sunscreen, 95th percentile	–	daily dermal uptake, percentile	20.8 ng/kg body weight/day
O=C1Nc2cc3[nH]nc(-c4ccncc4)c3cc2CN1Cc1ccccc1	CTCAE v4.03	advanced solid tumour patients	intravenous, 0.9 mg/kg, schedules 1/2	–	patients with constipation	0%
C[C@H]1CN(C(=O)CC#N)[C@]12CCN(c1ncnc3[nH]ccc13)C2	–	dog female	oral, 0.6 mg/kg repeated daily, 9 months, repeated-dose toxicity study	–	AUC at NOAEL	1510 ng·h/mL
C=CC(=O)N1CC[C@H](n2nc(C#Cc3cc(OC)cc(OC)c3)c3c(N)ncnc32)C1	–	human patients	oral, dose not given, QD regimen, adverse drug reaction, together with: ferric citrate hydrate	–	decreased appetite, any grade	100%
Clc1ccc(-c2ccccc2)cc1	–	female Sprague-Dawley rats, serum	inhalation, 23 µg/rat, 2 h after exposure	–	total protein	5 ± 1 g/dL
O.O.O.O.O.O.[Cl-].[Cl-].[Co+2]	–	rat female, urine	oral, 10 mg/kg single, day 1	–	urinary cobalt creatinine-corrected	0.82 µg/µmol creatinine
CN(C(=O)n1cnc(-c2ccc[n+]([O-])c2)c1)C1CCCCC1	–	Wistar rat, midbrain	oral, 10 mg/kg, 24 h, single dose	–	concentration	12.8 ± 0.5 ng/g
COc1ccc(C[C@@H]2NC(=O)[C@H]([C@@H](C)O)NC(=O)[C@@H]3[C@@H]4CCN3C(=O)[C@@H]3Cc5cn(c6ccc(F)cc56)CCCCCCN(Cc5ccc(cc5)CCNC(=O)[C@]5(C)CCCN5C2=O)C(=O)CCC(=O)N[C@@H](C)C(=O)N[C@H](CNC(=O)CCCCC[N+](C)(C)C)C(=O)N[C@@H](Cc2cccc(c2)CNC(=O)CO4)C(=O)N3)cc1	item: Toothache	humans	concentration not given, Study-001	–	participants with adverse event	2%
CN1CC[C@@H](c2c(O)cc(O)c3c(=O)cc(-c4ccc(C(F)(F)F)cc4Cl)oc23)[C@@H]1CO	item: Lymphopenia	relapsed AML	oral, 150 mg, grade 3-4, intermittent dosing	–	patients with adverse event	25%
O[C@H]1CCCN[C@@H]1CCCn1cnc2c(Cl)c(Cl)ccc21	–	healthy human, plasma	oral, 150 mg, steady state, together with: nintedanib 150 mg	–	AUCtau	1330 ng·h/mL
C=C(CN(C(=O)c1c(C(F)F)nn(C)c1F)C1CC1)c1ccc(Cl)cc1Cl	static acute toxicity test	zebrafish (Brachydanio rerio)	0.482 mg a.i./L, 96 h	–	mortality	0%
CN(C(=O)n1cnc(-c2ccc[n+]([O-])c2)c1)C1CCCCC1	–	culture medium without cells	100 nM, 3 h	–	concentration	0.1035 ± 0.001 µM
CCN1CCN(Cc2ccc(Nc3ncc(F)c(-c4cc(F)c5nc6n(c5c4)[C@H](C)CCC6)n3)nc2)CC1	–	advanced solid tumour patients	Phase Ia monotherapy	–	Hypercholesterolemia incidence, any grade	62.5%
